Results pooled from the literature.
Each numbered part is a random draw from the data of one study; scales do not carry over between parts.

Block 1
Target: RNA binding protein fox-1 homolog 2, RRM domain, GST-SBP tag (RBFOX2, Homo sapiens, UniProt O43251-10, residues 100-194)
Method: RNA Bind-n-Seq
Molecule type: RNA
Medium: in vitro
Tested at: 365 nM
Setting: natural RNA segment, single round, ends assumed
Reference: no-protein control
Direction: higher = stronger binding
Residues (chain): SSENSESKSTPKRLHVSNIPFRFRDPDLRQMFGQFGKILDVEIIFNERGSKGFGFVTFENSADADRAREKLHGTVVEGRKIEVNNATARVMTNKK
Strand | RBNS enrichment (R)
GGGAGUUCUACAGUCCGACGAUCAUCUGGGUGUCCUCAGCCCCUGUGGGGCAGCCAAGUUCCUGAUAGCACUUGUGCCUCAGCCCCUCACCUGGCCACCUGCCAGGGCACCUGCAACCCUAGCAAUACCAUGCUGGAAUUCUCGGGUGCCAA | 0.211
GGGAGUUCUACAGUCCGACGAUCUUGUAACCAAAUUCAUAUACUUUGUAUAAGUUUUUGAUAUCAUGAUCACAGGUGAUUCACACGUACACACAUCCACACCCACACGUGCAGCCUGAAGUGACGUCCACAGAUGGAAUUCUCGGGUGCCAA | 0.209
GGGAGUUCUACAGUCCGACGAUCCCCGUGGGUCAAGCAUUUGUCUUGACUUGCUUUCCUCCCGGGUCUCCAGCCUCCGACCCCUCGCCCCAUGAAGGAGCUGGCAGGUGGAAAUAAACAACAACUUUAUUAAAUGGAAUUCUCGGGUGCCAA | 0.303
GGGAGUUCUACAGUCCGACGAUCUGCCUGACGCUUCUCCACCCAGUGAUUGUGCUCCUGUCCCAAAGCACCCCGCUCAAGUCUCCCACCCCUGGUGGACCUCUGACUCUGUUGCUUUUCUUUAAGUAAAGAUUUGGAAUUCUCGGGUGCCAA | 0.461
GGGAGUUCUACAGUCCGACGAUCGGACACUCAAGGGUACAGUUUGACACUGAUCUGGUCCAUGAGGCUGCCCAGAGAAAGCACUGCUUCUGUAUGUCUCUUGUGGUAUUGGAACAAUAAACCCGUACAACCUGUGGAAUUCUCGGGUGCCAA | 0.416
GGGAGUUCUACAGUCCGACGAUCAACACCAACUGGAAAGGUACCCCGUCCCAGGGAAGCCUGCUAGGGAGAGGUUCUGUAGAAUCCGAGCCUAGCACCCCAAAGUCAUGCACCCAGUAUCCUCUUGUAUGACUUGGAAUUCUCGGGUGCCAA | 0.346
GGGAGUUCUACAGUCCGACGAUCGAAAACCCCUUUCGGGAGAAGAAGUUCUUCUGCGCCAUCCUUUAAGUCUCUGAGAGGAGGCUGAAGAGUGUUGGGGCUCCUGGGACAUACAUGUAGAGUUCCUAGCAAAGUGGAAUUCUCGGGUGCCAA | 0.236
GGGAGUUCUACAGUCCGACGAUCUGGCUUGCUUUCCAAGCCCAAUGAAGGGAAAGUCAGCUUACAGAGCCAAUGAUGGAGCCACAUGAAUGGCCCUGGAGCUGUGUGCCUUGUUCCUGUGGCCAGGAGUUUGGUGGAAUUCUCGGGUGCCAA | 0.772
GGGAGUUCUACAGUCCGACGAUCUUCCUGAUAUCUGAUGAGAGGUUCAUUCUUGUGUAUUCAGUUAAUGACACCAAAAGGCUCAGCCCACCCCAACCCUAUCUCAUGUUCAGUCUGUCUAAUACAUGCCAGAGUGGAAUUCUCGGGUGCCAA | 0.405
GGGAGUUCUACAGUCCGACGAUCAUAGUUGAUGAGAACUAGACUUAUGACUGUAGUUUACUAGAGUUUAGUUUUCAGUUGCUGAAGUAGCUCAUUUUCUCUUACUAAUGUUUGGUUCCUCAGGGAAGAAUCUCUGGAAUUCUCGGGUGCCAA | 0.734
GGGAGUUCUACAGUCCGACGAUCAGCUGCUGCAGACAAAAGAUCACAUUUCUGGGAAGAUGAGAACUUGUUUCCAGACCAGCAUCCAGUGGCCAUCAGGUCUUGUGGCCCAAAGGCUAUGCUUGCCUCCGGCUUGGAAUUCUCGGGUGCCAA | 0.524
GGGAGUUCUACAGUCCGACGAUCUUUAAUAGCCCUUUUUAAUUAGAAAUUAAAACAGUUAAUUUAAUUAAAGAGUAGGGUUUUUUUCAGUAUUCUUGGUUAAUAUUUAAUUUCAACUAUUUAUGAGAUGUAUCUGGAAUUCUCGGGUGCCAA | 0.67

Block 2
Target: Histone acetyltransferase KAT6A, winged helix 2, GST fusion (KAT6A, Homo sapiens, UniProt Q92794, residues 85-181)
Method: protein binding microarray
Molecule type: double-stranded DNA, one strand shown
Medium: in vitro
Tested at: not given
Setting: 8-mer, flanks averaged, mean of 2 arrays, mostly near background
Reference: not given
Direction: higher = stronger binding
Residues (chain): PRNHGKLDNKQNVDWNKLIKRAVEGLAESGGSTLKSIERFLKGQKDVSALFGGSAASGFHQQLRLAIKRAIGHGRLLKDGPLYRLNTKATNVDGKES
Strand | E-score
CGGACCGC | 0.0931
ACGTCTGG | 0.0494
CCCCAACC | -0.00692
CAAGAATA | 0.101
CGTGGTGA | -0.156
AATTAGAG | 0.104
CATTCTTA | -0.00763
TCTCCCCA | 0.0314
ACTTTACA | -0.124
CATACGAC | -0.127
AAGTACCA | -0.0392
TGACACAA | 0.0141
AGGGATAC | -0.0697
CTAGATCA | -0.137
CCCTAACG | 0.037
GGCGAAAC | 0.206
CGGAGACC | 0.08

Block 3
Target: Sal-like protein 4, full length isoform A (SALL4, Homo sapiens, UniProt Q9UJQ4, residues 1-1053)
Sequence of UniProt Q9UJQ4 (whole entry, looked up): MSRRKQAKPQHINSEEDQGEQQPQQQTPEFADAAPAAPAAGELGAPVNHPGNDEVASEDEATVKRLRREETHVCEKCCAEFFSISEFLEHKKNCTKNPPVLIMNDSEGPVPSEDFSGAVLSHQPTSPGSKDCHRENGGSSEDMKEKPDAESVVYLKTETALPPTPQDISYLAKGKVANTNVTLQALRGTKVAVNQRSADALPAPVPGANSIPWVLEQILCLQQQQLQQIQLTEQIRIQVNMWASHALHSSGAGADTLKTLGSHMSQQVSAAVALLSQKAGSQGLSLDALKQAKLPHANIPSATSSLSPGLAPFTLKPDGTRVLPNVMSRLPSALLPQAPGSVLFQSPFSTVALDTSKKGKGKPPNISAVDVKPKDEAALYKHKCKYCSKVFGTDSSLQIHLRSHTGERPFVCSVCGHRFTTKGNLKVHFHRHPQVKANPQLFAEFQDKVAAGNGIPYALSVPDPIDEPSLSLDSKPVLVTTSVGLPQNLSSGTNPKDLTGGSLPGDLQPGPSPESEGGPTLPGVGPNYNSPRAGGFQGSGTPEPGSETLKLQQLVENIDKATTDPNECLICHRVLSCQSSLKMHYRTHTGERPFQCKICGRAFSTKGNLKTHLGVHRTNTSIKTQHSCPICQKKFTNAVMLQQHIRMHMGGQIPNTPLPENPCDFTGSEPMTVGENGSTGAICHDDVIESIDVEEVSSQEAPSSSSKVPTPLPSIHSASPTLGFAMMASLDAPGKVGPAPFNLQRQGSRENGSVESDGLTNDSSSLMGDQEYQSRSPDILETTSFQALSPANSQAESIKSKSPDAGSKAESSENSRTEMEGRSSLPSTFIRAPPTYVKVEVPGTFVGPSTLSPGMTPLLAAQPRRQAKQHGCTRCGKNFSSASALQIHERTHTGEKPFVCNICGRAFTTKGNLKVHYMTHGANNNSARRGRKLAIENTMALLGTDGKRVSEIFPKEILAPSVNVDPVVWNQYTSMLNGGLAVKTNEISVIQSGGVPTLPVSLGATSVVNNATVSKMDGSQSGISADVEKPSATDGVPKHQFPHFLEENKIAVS
Method: universal PBM
Molecule type: double-stranded DNA, one strand shown
Medium: in vitro
Tested at: 600 nM
Setting: 8-mer, flanks averaged, mean of replicates
Direction: higher = stronger binding
Strand | E-score
AAAGCAGA | 0.0558
CTACTACA | 0.221
GAGACCAC | -0.166
ACCATTCT | 0.04
ATGGATGA | 0.208
CGGCGATA | 0.04
CGCAGCCA | -0.261
ACGAGAAG | -0.0173
GCCTGCCC | -0.367
GATCCCAA | -0.171
AATTAGGC | 0.16
ATCCATGC | 0.0828
TCGGTTAA | 0.125
GCCAGGGC | -0.403
CTTGTGCA | 0.0326
AGCCGAAA | 0.0432

Block 4
Target: Interferon regulatory factor 5, full length, phosphomimetic (IRF5, Homo sapiens, UniProt Q13568-2, residues 1-514, S451D/S453D/S456D/S462D)
Method: protein-binding microarray
Molecule type: double-stranded DNA, one strand shown
Medium: in vitro
Tested at: 940 nM top
Setting: 60-bp whole probe
Added: salmon DNA 0.4 mg/ml
Reference: random background probes
Direction: higher = stronger binding
All sequences stand within: GCCTAGCAC … GTCTTGATTCGCTTGACGCTGCTG
Strand | fitted relative affinity
TTAGGGCTCCTTTTCCTTTAGTGCTAG | 0.176 z-score
TCAATTATGAGTCTTGAACTGTGCTAG | -0.536 z-score
CCTTATTTAAGACCTATGCACGTGCTA | 0.84 z-score
TTAGGTATCGACTATCGATTAGTGCTA | 6.18 z-score
GACGAACTGCGGTATCGAGACGTGCTA | 0.756 z-score
GACGTTTTCGGGTATCGAGACGTGCTA | 2.2 z-score
GACGGTATCCTTTTCCAGACGTGCTAG | 0.415 z-score
GACGATTTCAGATTCGAGACGTGCTAG | 0.143 z-score
TCCTGCTGTACCCCTAGGGCGTGCTAG | -0.185 z-score
TTAGAACTGAGTTTGGATTAGTGCTAG | -0.309 z-score
GACGGTCTCAGTCTCGAGACGTGCTAG | 1.94 z-score
TTAGGACTGGACTATCGCTTAGTGCTA | -0.552 z-score
TTAGGTTTCCTTTTCCTATAGTGCTAG | 2.73 z-score
CTATGTCTGTTTTTGCTTTCGTGCTAG | 1.41 z-score
TTATATTTCAGTTCCGATTAGTGCTAG | 2.2 z-score
TTAGGACTGGACTTTCGGCTAGTGCTA | 0.856 z-score
TCTTTTCTGTTGTCTGTGTTTGTGCTA | 2.46 z-score
GACGATTTCAGTCTCGAGAAGTGCTAG | 1.75 z-score
GACGGTTTTGGTTCCGGGACGTGCTAG | 3.76 z-score
TTAGGCCTCCTTATCCTTTAGTGCTAG | 0.125 z-score
TTAGGAGTGGGTTTCGGTTAGTGCTAG | 7.36 z-score
CAGATGGAATTAAGAAGATGGTGCTAG | -0.682 z-score
TTAGGTCTCCTTCTCCTTAAGTGCTAG | 0.492 z-score
TTAGAACCGGGGACTGGATTAGTGCTA | -0.17 z-score
CTTGCTTGGTGTCTCTGGCCGTGCTAG | -0.378 z-score

Block 5
Target: Prothrombin, mature alpha-thrombin (F2, Homo sapiens, UniProt P00734)
Method: aptamer microarray, sandwich
Molecule type: DNA with 2'F-ANA
Medium: in vitro
Tested at: 200 nM
Setting: whole 15-mer aptamer, many near background
Added: Cy3 exosite-II aptamer, 400 nM
Direction: higher = stronger binding
Strand: GGTTGGTGTGGTTGG
Modification | mean fluorescence intensity
2'F-ANA at 2 4 5 6 8 9 10 13 14 | 53.5 a.u.
2'F-ANA at 2 4 5 7 9 10 11 12 | 49.1 a.u.
2'F-ANA at 1 5 6 8 9 10 11 12 15 | 51.6 a.u.
2'F-ANA at 1 2 3 4 6 7 9 11 13 15 | 84.2 a.u.
2'F-ANA at 1 3 5 6 10 12 13 14 | 46.3 a.u.
2'F-ANA at 5 6 8 9 10 11 12 13 15 | 75.8 a.u.
2'F-ANA at 2 3 9 14 | 405 a.u.
2'F-ANA at 3 4 5 8 11 14 15 | 63 a.u.
2'F-ANA at 1 2 3 4 5 6 9 12 13 | 68.2 a.u.
2'F-ANA at 1 5 10 11 14 15 | 49 a.u.
2'F-ANA at 2 3 5 6 9 11 12 | 168 a.u.
2'F-ANA at 1 4 7 9 11 12 13 15 | 134 a.u.
2'F-ANA at 1 2 3 4 5 7 12 15 | 115 a.u.
2'F-ANA at 4 7 8 10 11 | 90.4 a.u.
2'F-ANA at 2 10 11 12 13 | 159 a.u.
2'F-ANA at 1 4 7 9 10 12 14 | 46.4 a.u.
2'F-ANA at 1 4 5 6 12 14 | 42.7 a.u.
2'F-ANA at 1 2 8 9 10 12 | 69.4 a.u.
2'F-ANA at 4 6 7 9 13 14 | 67.2 a.u.
2'F-ANA at 1 4 6 8 10 11 13 14 15 | 148 a.u.
2'F-ANA at 3 5 7 12 13 14 15 | 65.3 a.u.
2'F-ANA at 1 2 4 5 6 7 8 13 | 50 a.u.
2'F-ANA at 1 6 8 9 12 13 15 | 263 a.u.
2'F-ANA at 3 5 6 8 10 11 12 13 14 15 | 68 a.u.
2'F-ANA at 2 4 5 6 7 8 10 11 14 15 | 50.2 a.u.
